Results from different studies.
Every numbered part comes from another study and shows a few of its results, in no order.

Study 1
Target: Prothrombin, mature alpha-thrombin (F2, Homo sapiens, UniProt P00734)
Technique: aptamer microarray, sandwich
Molecule type: DNA with 2'F-ANA
Sample: in vitro
Tested at: 200 nM
Setting: whole 15-mer aptamer, many near background
Added: Cy3 exosite-II aptamer, 400 nM
Direction: higher = stronger binding
Quantity: mean fluorescence intensity
Oligonucleotide: GGTTGGTGTGGTTGG
2'F-ANA at 1 5 6 8 10 11 12 13 15: 214 a.u.
2'F-ANA at 2 4 5 8 14: 56.6 a.u.
2'F-ANA at 1 4 5 6 10 13 15: 72.5 a.u.
2'F-ANA at 2 4 5 6 8 13 15: 52.3 a.u.
2'F-ANA at 3 4 5 7 9 11: 103 a.u.
2'F-ANA at 1 2 3 4 7 8 10 14 15: 52.2 a.u.
2'F-ANA at 2 3 5 6 7 8 11 14 15: 52.1 a.u.
2'F-ANA at 5 6 7 9 11 13 15: 54.5 a.u.
2'F-ANA at 5 10 11 13: 43.2 a.u.
2'F-ANA at 4 5 6 7 8 9 15: 70.8 a.u.
2'F-ANA at 2 3 4 5 9 10 11 12 13 14 15: 50.1 a.u.
2'F-ANA at 2 3 5 6 11 12 14 15: 84.3 a.u.
2'F-ANA at 1 2 5 6 7 9 10 12 15: 51.3 a.u.
2'F-ANA at 4 5 6 8 9 10 15: 75.2 a.u.
2'F-ANA at 1 2 3 5 6 7 11: 55.7 a.u.
2'F-ANA at 3 13 14: 641 a.u.
2'F-ANA at 1 2 5 9: 65 a.u.
2'F-ANA at 1 9 10 12: 70.6 a.u.
2'F-ANA at 1 2 3 5 7 12 13: 96.4 a.u.
2'F-ANA at 1 3 8 9 11 12 13 14: 106 a.u.
2'F-ANA at 1 2 4 8 9 12 13 14 15: 56.5 a.u.
2'F-ANA at 1 2 3 6 7 13 15: 137 a.u.
2'F-ANA at 1 3 5 6 8: 69.4 a.u.
2'F-ANA at 1 3 4 8 10 12 13 15: 79 a.u.
2'F-ANA at 1 6 7 11 12 14: 65.4 a.u.

Study 2
Target: RNA binding protein fox-1 homolog 2, RRM domain, GST-SBP tag (RBFOX2, Homo sapiens, UniProt O43251-10, residues 100-194)
Technique: RNA Bind-n-Seq
Molecule type: RNA
Sample: in vitro
Tested at: 365 nM
Setting: natural RNA segment, single round, ends assumed
Reference: no-protein control
Direction: higher = stronger binding
Quantity: RBNS enrichment (R)
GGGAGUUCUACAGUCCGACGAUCCACUUGGGAGAGGUGAGGAAGAGCAAGAGAAGCUGGGGGUGUGGAGAGGCAGGUCCCCCAGGCUGGGAUGCUGGCCCCUAGACUAGGGUGCUGACCCCUGGGCUGGGGUGUGGAAUUCUCGGGUGCCAA: 0.667
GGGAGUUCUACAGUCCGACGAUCUAUUGAACCCACCCACUCAGAUGCUAAGUCAACCCUGACCUCUGCCCCAUCCACACCAUUCUCCAUUCGAGAGACUACCCCUGUUUCAGAGCCAGUCCCCACCUAGUCCCUGGAAUUCUCGGGUGCCAA: 0.505
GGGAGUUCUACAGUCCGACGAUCAUAGCGUUUCCAACAAAUUGAGAAAUUACUUAUUUGGUGUAAAAUGACGAGAGAGCUUUAGAAUUUAAUAAAAUGUCAAAAAUACAAUUUGAUACCCUUAAAAAUUAUUCUGGAAUUCUCGGGUGCCAA: 0.525
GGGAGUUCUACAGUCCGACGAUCGGGAGGGGUCCAUGACUCCGGGGAAGACGCUUCUCAACGAGGGAUGUGUGGAAAGAAAACAGAAGUGAGAAAGAAGUUACCUUGUAUUAUGUAUUUUUACUACACUUUUCUGGAAUUCUCGGGUGCCAA: 0.639
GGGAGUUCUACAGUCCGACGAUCUUUACCUCUGGGCUCAAUAAGGGCAUCUGUGCAGAAAUUUGGAAGCCAUUUAGAAAAUCUUUUGGAUUUUCCUGUGGUUUAUGGCAAUAUGAAUGGAGCUUAUUACUGGGUGGAAUUCUCGGGUGCCAA: 0.424
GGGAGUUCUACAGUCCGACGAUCGCCCGCUAUUUAGAGCCAUCCCUCAGUCAGCUGGCAGGGACAAGCCAACGCCAGGUAGCAUGUGGCCACCCUUGCCCAGUGUCUGUGGCCUGGCAAGUGGCCACGCCCUGUGGAAUUCUCGGGUGCCAA: 2.99
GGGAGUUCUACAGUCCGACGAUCUCUCUAGCUACCCACAAGGGAAGUGUAUAGCAUAAAAAGUCUAAGUAGCAUAUCCUGUCCUGAAAGUGUGUGUAGUUUUACUUGUUCAACAGAAUGUCCGACAGCAUCCUUGGAAUUCUCGGGUGCCAA: 5.03
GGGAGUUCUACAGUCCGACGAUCCCGGAGUGCUGGCUCUCACAGUGAAUUUUGAUGCAUUUAAAAUAAGAUUCUGAUGCCAGACUGUUAAAACAGGCGCUGGUUCUGAAGCACCGAUGGAAACAGAUUGAUGCUGGAAUUCUCGGGUGCCAA: 1.04

Study 3
Target: Sal-like protein 4, full length isoform A (SALL4, Homo sapiens, UniProt Q9UJQ4, residues 1-1053)
UniProt Q9UJQ4, sequence (whole entry, looked up): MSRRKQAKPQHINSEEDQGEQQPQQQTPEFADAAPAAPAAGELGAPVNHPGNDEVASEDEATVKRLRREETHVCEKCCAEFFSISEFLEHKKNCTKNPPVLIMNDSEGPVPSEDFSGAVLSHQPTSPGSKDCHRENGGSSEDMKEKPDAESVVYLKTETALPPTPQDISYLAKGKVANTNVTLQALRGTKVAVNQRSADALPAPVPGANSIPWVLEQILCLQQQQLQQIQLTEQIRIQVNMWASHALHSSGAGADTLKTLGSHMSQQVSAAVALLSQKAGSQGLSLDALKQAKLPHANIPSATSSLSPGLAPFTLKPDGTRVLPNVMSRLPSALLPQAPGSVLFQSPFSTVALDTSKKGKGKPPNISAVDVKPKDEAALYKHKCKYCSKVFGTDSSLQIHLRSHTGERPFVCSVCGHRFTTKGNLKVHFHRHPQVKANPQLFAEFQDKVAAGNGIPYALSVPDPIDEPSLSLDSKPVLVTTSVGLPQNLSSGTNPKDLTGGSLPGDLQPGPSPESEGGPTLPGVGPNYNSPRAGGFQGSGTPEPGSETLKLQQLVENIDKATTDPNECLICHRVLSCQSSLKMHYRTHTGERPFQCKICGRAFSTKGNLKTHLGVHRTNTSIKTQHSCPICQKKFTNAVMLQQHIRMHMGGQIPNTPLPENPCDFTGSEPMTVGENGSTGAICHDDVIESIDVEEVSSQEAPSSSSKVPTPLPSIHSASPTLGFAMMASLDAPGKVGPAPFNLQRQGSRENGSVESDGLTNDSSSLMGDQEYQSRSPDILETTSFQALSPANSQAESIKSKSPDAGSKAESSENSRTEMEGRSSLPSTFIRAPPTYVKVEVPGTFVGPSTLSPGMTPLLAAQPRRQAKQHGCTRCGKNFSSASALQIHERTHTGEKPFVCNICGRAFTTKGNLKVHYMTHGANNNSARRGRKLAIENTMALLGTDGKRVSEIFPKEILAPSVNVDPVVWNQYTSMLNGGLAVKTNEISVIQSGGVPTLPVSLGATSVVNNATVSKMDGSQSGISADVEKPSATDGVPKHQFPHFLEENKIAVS
Technique: universal PBM
Molecule type: double-stranded DNA, one strand shown
Sample: in vitro
Tested at: 600 nM
Setting: 8-mer, flanks averaged, mean of replicates
Direction: higher = stronger binding
Quantity: E-score
CTACTAGA: -0.00551
AGTGCGAC: -0.247
TCCAAGAA: 0.0256
GTGCTATA: 0.297
GGAAGCCA: -0.131
GGCGCTAC: -0.275
GCTCTTAA: 0.0442
AGTGCGAG: -0.123
CCAGACCA: -0.0934
CAGGGCCG: -0.29
CAGGGAAA: -0.126
CACACTAA: 0.204
GGTCCTTA: -0.1
ACCAAATA: 0.278
ACCTCGAG: -0.0941
GGAAGTAA: 0.101
ACTTCGCG: -0.0896
ACTGGACT: -0.00364
AGTGATGC: -0.0371

Study 4
Target: RING finger protein unkempt homolog, zinc fingers 1-6, GST-SBP tag (UNK, Homo sapiens, UniProt Q9C0B0, residues 30-357)
Technique: RNA Bind-n-Seq
Molecule type: RNA
Sample: in vitro
Tested at: not given
Setting: RNA with constant flanks, ends assumed
Reference: input RNA pool
Direction: higher = stronger binding
Quantity: bound/input enrichment
Construct (chain): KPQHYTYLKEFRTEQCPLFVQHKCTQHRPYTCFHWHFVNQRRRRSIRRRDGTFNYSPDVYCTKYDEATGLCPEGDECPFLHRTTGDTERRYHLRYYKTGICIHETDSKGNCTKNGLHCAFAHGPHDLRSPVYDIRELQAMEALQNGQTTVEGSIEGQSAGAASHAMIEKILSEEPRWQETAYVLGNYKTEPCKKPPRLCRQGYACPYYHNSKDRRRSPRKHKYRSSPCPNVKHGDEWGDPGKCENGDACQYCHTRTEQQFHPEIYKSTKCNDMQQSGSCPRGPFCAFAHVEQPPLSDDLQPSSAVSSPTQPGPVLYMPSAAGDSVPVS
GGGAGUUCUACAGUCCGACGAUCACUUUUGGACUUGAUCAGUUGAAAACAAGAGAAGCCAUUGCCAUGCUACACAAAGAUGGCACCGAAUUUGCUUUUAAAGAGCCUAAUCCGCAAGGGGAGAGCCAUCCACCUUUAAAUUUGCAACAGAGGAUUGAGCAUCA: 0.171 ratio
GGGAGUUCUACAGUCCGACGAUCUAAGAUUUUGUUUUUUCACUUACAGGCUAUAAAAGAGCAGUACAGGGCCCAGCCCAGCUCCUCCGCCCGCGAAUUGCGAUGGAAUGACAUAGCUGUGGCAAAACUAAGCGGCCGCUGCUCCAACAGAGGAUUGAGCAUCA: 0.296 ratio
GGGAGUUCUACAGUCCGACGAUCAUUUGGGGCAGUACCAGUCCAUACCAGCUGCGAUUUGUGAGUGGACCUGUGGUAAGAAGAACCGAAAAGGCUCUCAGAGAUAAGGUUUUUUACAUGUGUAACAAUCCCAAGAUUUCCUAGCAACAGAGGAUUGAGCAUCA: 0.293 ratio
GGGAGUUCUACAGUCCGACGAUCGUAUGGUUUUUGCUUACCCUUUCAAGUCACAGGUAAAUGUUUCAUAAGGAAAUCACAGUUUUCCGAUUCCCUGUUAUUGCUAGUGUGGGACCUGUAGCUGUGGGGUCUGACAUAUUUAUUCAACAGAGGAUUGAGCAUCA: 0.551 ratio
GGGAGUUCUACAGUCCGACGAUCUUCUGUCUGUAGGUAGGUUGUUGAUUCUAAGUAGCUUUCGUUUGUUCGUCUGUCUUAUGUCUCCGACCAGCUUUGUGGUGUUCUUGGCUCAUCUCAUAAUACUGUUGUUCAGUUUAUAUCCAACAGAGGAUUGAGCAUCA: 0.44 ratio
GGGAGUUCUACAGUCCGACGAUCGACCCAGGAAGCAAAGACCCAGAAGAAGAUUACCCCAAGUUUGGACUUUUGGAUCAGGAUCUCCGUAAUAUUGGUCCUGCUUAUGACAACCAGAAACAAAGCAGUGCUGUGUCUGCUAGUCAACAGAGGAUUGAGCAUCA: 0.167 ratio
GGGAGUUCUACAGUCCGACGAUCUUAAGACUCACAUCAGAUUGGGCGAUGAUGCUCAAGAAACGAAAGUUUUGCUGGAAAAGCACCGAAAAUUUGUUGAUGUUGCACAGAGCACUUAUGACUAUGGCAGGCAGUUGCUACAGGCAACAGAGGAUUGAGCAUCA: 0.242 ratio
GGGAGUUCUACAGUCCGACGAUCGCAGAGAUGGAGAAUAUUAAGGCGAUUGCCACAGUCUCUGAGAACACCAAGCAAGAAGCUACCGAUGAAGUGAAAAGACAGUGGAGAGAAGAAGUUGCUUCACUUCAGGCUGUUAUGAAACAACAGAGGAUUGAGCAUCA: 0.0665 ratio

Excerpt of the above (study 3):
ACCAAATA: 0.278
ACCTCGAG: -0.0941
GGAAGTAA: 0.101
ACTTCGCG: -0.0896
